{"data": "Measured values gathered from unrelated publications", "note": "Parts stem from different laboratories: compare values within a part only. Substitutions count along the parent as printed."}
{"data": "Set 1", "target": "CREB3L1, bZIP domain (human)", "method": "DHFR protein complementation", "medium": "yeast", "notes": "single substitutions, most at no-binding floor", "relative to": "wild-type JUN-FOS pair", "reading": "higher = stronger binding", "starting sequence": "JUN, bZIP domain (human); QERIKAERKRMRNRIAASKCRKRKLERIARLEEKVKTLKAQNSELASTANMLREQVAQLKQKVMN; partner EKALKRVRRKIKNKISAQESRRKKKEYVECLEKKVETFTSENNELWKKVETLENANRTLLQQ"}
{"Substitution": "Q58S", "binding fitness [natural log]": -1.39}
{"Substitution": "I28F", "binding fitness [natural log]": -1.53}
{"Substitution": "A57V", "binding fitness [natural log]": -1.45}
{"Substitution": "K39S", "binding fitness [natural log]": -1.42}
{"Substitution": "R30A", "binding fitness [natural log]": -1.29}
{"Substitution": "S43E", "binding fitness [natural log]": -1.45}
{"Substitution": "E54N", "binding fitness [natural log]": -1.52}
{"Substitution": "A57E", "binding fitness [natural log]": -1.45}
{"Substitution": "S43L", "binding fitness [natural log]": -1.35}
{"Substitution": "Q55F", "binding fitness [natural log]": -1.44}
{"Substitution": "E44C", "binding fitness [natural log]": -1.14}
{"Substitution": "K36R", "binding fitness [natural log]": -1.37}
{"Substitution": "S43P", "binding fitness [natural log]": -1.49}
{"Substitution": "K39T", "binding fitness [natural log]": -1.46}
{"Substitution": "E44Q", "binding fitness [natural log]": -1.52}
{"Substitution": "L31F", "binding fitness [natural log]": -1.44}
{"Substitution": "L38K", "binding fitness [natural log]": -1.44}
{"Substitution": "L31D", "binding fitness [natural log]": -1.51}
{"data": "Set 2", "target": "CCND2, cyclin fold, Cln2 fusion (human)", "method": "yeast growth competition, sequencing", "medium": "yeast", "notes": "weak parent motif", "relative to": "not given", "reading": "higher = stronger binding", "starting sequence": "RBL2 docking peptide (human); STTRRRLFVENDS"}
{"Substitution": "STTRRRLFVKNDS [E10K]", "normalised enrichment score": 0.163}
{"Substitution": "STTRRREFVENDS [L7E]", "normalised enrichment score": 0.598}
{"Substitution": "STTRRRLFVENDV [S13V]", "normalised enrichment score": -0.104}
{"Substitution": "SYTRRRLFVENDS [T2Y]", "normalised enrichment score": 0.221}
{"Substitution": "STTRRRLFVENDC [S13C]", "normalised enrichment score": -0.074}
{"Substitution": "RTTRRRLFVENDS [S1R]", "normalised enrichment score": 0.82}
{"Substitution": "SETRRRLFVENDS [T2E]", "normalised enrichment score": 0.547}
{"Substitution": "SMTRRRLFVENDS [T2M]", "normalised enrichment score": 0.416}
{"Substitution": "STTRRRLNVENDS [F8N]", "normalised enrichment score": 0.178}
{"Substitution": "SNTRRRLFVENDS [T2N]", "normalised enrichment score": 0.157}
{"Substitution": "STSRRRLFVENDS [T3S]", "normalised enrichment score": -0.0363}
{"Substitution": "STTRDRLFVENDS [R5D]", "normalised enrichment score": -0.0684}
{"Substitution": "STTRRRYFVENDS [L7Y]", "normalised enrichment score": 0.224}
{"Substitution": "STTRNRLFVENDS [R5N]", "normalised enrichment score": 0.268}
{"Substitution": "STTRSRLFVENDS [R5S]", "normalised enrichment score": -0.177}
{"Substitution": "STTRRRLFKENDS [V9K]", "normalised enrichment score": 0.186}
{"Substitution": "STTRRRLFVENDL [S13L]", "normalised enrichment score": 0.169}
{"Substitution": "STPRRRLFVENDS [T3P]", "normalised enrichment score": 0.0509}
{"Substitution": "STTRRRLFVELDS [N11L]", "normalised enrichment score": 0.14}
{"Substitution": "STTRRRLFVENDM [S13M]", "normalised enrichment score": 0.285}
{"Substitution": "STGRRRLFVENDS [T3G]", "normalised enrichment score": 0.176}
{"Substitution": "STTRRRLFFENDS [V9F]", "normalised enrichment score": 0.434}
{"Substitution": "STTRRRLLVENDS [F8L]", "normalised enrichment score": 0.146}
{"Substitution": "STTRRRLSVENDS [F8S]", "normalised enrichment score": 0.198}
{"Substitution": "WTTRRRLFVENDS [S1W]", "normalised enrichment score": -0.185}
{"data": "Set 3", "target": "Histone acetyltransferase KAT6A, both winged helices, GST fusion (KAT6A, Homo sapiens, UniProt Q92794, residues 1-181)", "method": "protein binding microarray", "molecule type": "double-stranded DNA, one strand shown", "medium": "in vitro", "concentration": "not given", "notes": "8-mer, flanks averaged, mean of 2 arrays, mostly near background", "relative to": "not given", "reading": "higher = stronger binding", "Target sequence (chain)": "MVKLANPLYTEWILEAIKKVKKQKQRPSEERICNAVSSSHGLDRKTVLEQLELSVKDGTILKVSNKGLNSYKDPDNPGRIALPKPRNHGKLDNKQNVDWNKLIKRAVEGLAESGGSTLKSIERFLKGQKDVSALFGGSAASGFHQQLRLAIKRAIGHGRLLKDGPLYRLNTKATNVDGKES"}
{"Sequence": "ACTCACAC", "E-score": -0.107}
{"Sequence": "AGCGGAGA", "E-score": 0.00086}
{"Sequence": "GCGCCGTA", "E-score": 0.363}
{"Sequence": "ATAAACCA", "E-score": -0.0691}
{"Sequence": "CCTGTAAC", "E-score": -0.0531}
{"Sequence": "TATCGCGA", "E-score": 0.237}
{"Sequence": "CAAGGCAA", "E-score": -0.186}
{"Sequence": "CGGAATTA", "E-score": 0.132}
{"Sequence": "AGTAACAC", "E-score": -0.0331}
{"Sequence": "ACCTTACA", "E-score": -0.132}
{"Sequence": "GAGCGCGA", "E-score": 0.254}
{"Sequence": "TAGCCATA", "E-score": -0.0729}
{"Sequence": "ACGTGGAC", "E-score": 0.0347}
{"Sequence": "ACGTTAGC", "E-score": 0.0935}
{"Sequence": "ATCCCGGA", "E-score": 0.0365}
{"Sequence": "CGCCTACA", "E-score": 0.149}
{"Sequence": "ACATAGAT", "E-score": 0.0146}
{"Sequence": "TGCGGAAA", "E-score": 0.198}
{"Sequence": "ATCTGCCC", "E-score": -0.0295}
{"Sequence": "ATGGGAAT", "E-score": -0.114}
{"Sequence": "GCGGTCGA", "E-score": 0.219}
{"Sequence": "CCAAGGCC", "E-score": 0.00443}
{"Sequence": "GTCCGAAC", "E-score": 0.121}
{"Sequence": "ATCCTAAG", "E-score": -0.227}
{"data": "Set 4", "target": "RNA binding protein fox-1 homolog 2, RRM domain, GST-SBP tag (RBFOX2, Homo sapiens, UniProt O43251-10, residues 100-194)", "method": "RNA Bind-n-Seq", "molecule type": "RNA", "medium": "in vitro", "concentration": "365 nM", "notes": "natural RNA segment, single round, ends assumed", "relative to": "no-protein control", "reading": "higher = stronger binding", "all sequences stand within": "GGGAGUUCUACAGUCCGACGAUC … UGGAAUUCUCGGGUGCCAA", "Target sequence (chain)": "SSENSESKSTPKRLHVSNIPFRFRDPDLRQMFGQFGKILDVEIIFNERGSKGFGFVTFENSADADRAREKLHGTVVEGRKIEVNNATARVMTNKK"}
{"Sequence": "GUAGCGACUUUGGUGUGCAGUGAGAUGCUCACCUUUAGCCUCUGCUCCCCUAACUAGGCUGGCACUUCCCUUGGCUGUACUUGGGGGACACCCAGAGAGGCUGGUGUACU", "RBNS enrichment (R)": 0.509}
{"Sequence": "GAGAGUUGGAGUCAAAGCCAUUGUUAUCUUUUGGUGACACCCUUAAAUUUUAAGUCUUCCAGUCUUCCAUGUGAACUUUAGGCCCAAAGUUUCUUAUGUAUCACACAUCC", "RBNS enrichment (R)": 0.46}
{"Sequence": "UGAGCUGGUGCGUUUAAGGAACAGGCCAGCACUGGCAUUCGCAAGCAGUGGGGAAGGGGAGAGAUGCCGAGGUGGUCAGUAUCCUGACUUUCAGAGGCCUUUUUUUGUUU", "RBNS enrichment (R)": 0.575}
{"Sequence": "GUCCCUGCACUCCCUUGGUUGCCAAAAAAAUGAUAACUUAAAUCCCUUCCAGACUUAAGAAUUUUAUGGCAUGGCCCAAUUGAUAUAAACAUUUAGAAGGAAAUGAAAAG", "RBNS enrichment (R)": 0.494}
{"Sequence": "CUCAAGUAGAAAUUGCCCAAUUUUUACCAGCUGGAGGGACACCCUUGGGUUUUUGUACGAAGCUAUUUAAUGAGCCUGUGUCUUGGGGACUCAGCAGGCUGGAGCUUGGG", "RBNS enrichment (R)": 1.16}
{"Sequence": "AUGGACUUCUGAGCCGUCUGACUUCUCUCUUCUCCCCAAGAGUCCAAUGCUAGGACACUGGCCAUGUGCACACCAGCACUCAAGACAAGAAGCCAGCCUCCCGGCCCAGC", "RBNS enrichment (R)": 0.534}
{"Sequence": "UGCCUGCUGGAAGUCUGUUUUGGGGAGAAGCCUAGUAGAACUCCCAGCCCUCAGCUGUCAUCCUUCCUGCCCUGCCCCUCUGUUUUAUCCUGGUGGGUCUUGCCUGUGAC", "RBNS enrichment (R)": 3.21}
{"Sequence": "CCCAGAAGAGUGACUCAAGGACGGGGUCUCUCUAGCAACUGAGAAGACUAUGAUGAGUCCCCGAAAGGUCCUGCUGUGCCCUGAGCCUCCCUAGGUUUAGAAAAACAACU", "RBNS enrichment (R)": 0.324}
{"data": "Set 5", "target": "ABI1, truncated, D143A, DHFR fusion (Arabidopsis thaliana)", "method": "DHFR PCA, deep sequencing", "medium": "yeast", "notes": "methotrexate growth selection, single substitutions", "added": "(+)-ABA 710 µM", "relative to": "wild-type fitted maximum", "reading": "higher = stronger binding", "starting sequence": "PYL1, truncated, DHFR fusion (Arabidopsis thaliana); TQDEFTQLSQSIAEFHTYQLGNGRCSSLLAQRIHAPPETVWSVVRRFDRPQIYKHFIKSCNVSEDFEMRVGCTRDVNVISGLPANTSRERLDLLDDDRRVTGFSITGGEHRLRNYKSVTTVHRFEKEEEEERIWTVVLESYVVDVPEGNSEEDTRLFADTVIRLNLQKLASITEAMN; partner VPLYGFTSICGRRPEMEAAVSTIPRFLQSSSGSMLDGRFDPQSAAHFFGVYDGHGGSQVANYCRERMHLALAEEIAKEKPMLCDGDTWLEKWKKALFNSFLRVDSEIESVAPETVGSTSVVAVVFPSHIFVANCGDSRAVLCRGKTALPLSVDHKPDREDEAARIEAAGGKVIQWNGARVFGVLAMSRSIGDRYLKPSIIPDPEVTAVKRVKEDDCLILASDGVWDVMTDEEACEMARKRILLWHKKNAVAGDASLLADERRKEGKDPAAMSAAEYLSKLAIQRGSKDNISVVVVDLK"}
{"Substitution": "E151K", "relative binding score": "103%"}
{"Substitution": "L164V", "relative binding score": "101%"}
{"Substitution": "S117V", "relative binding score": "11.9%"}
{"Substitution": "D48A", "relative binding score": "84.1%"}
{"Substitution": "P37L", "relative binding score": "89.9%"}
{"Substitution": "H16L", "relative binding score": "17.5%"}
{"Substitution": "A175S", "relative binding score": "101%"}
{"Substitution": "S42C", "relative binding score": "98.4%"}
{"Substitution": "E14M", "relative binding score": "93.5%"}
{"Substitution": "V143M", "relative binding score": "88.2%"}
{"Substitution": "Y115E", "relative binding score": "-0.869%"}
{"Substitution": "H55V", "relative binding score": "103%"}
{"Substitution": "K168V", "relative binding score": "93.3%"}
{"Substitution": "S80P", "relative binding score": "61.5%"}
{"Substitution": "T1P", "relative binding score": "99.7%"}
{"Substitution": "R111P", "relative binding score": "56%"}
{"Substitution": "W134E", "relative binding score": "106%"}
{"data": "Mixed results"}
{"Substance": "PhoQ, residues 284 288 289 292 302 303 ALAMYF", "target": "PhoP, residues 12 14 15 18 19 SMASL (Escherichia coli, UniProt P23836)", "test": "Sort-seq, item: YFP reporter", "test system": "E. coli", "conditions": "PhoQ-PhoP variant library, added: 10 µM Mg2+", "how to read": "relative to: high Mg2+ state, higher = stronger signaling", "endpoint": "fold induction", "value": 2.36}
